Measurements of several laboratories.
A part holds a random share of what one study measured. Positions count from the first letter of the parent shown.

Series 1
Target: CCNE1, cyclin fold, Cln2 fusion (human)
Method: yeast growth competition, sequencing
Matrix: yeast
Notes: strong parent motif
Relative to: not given
Direction: higher = stronger binding
Measurement: normalised enrichment score
Parent: SCAPER docking peptide (human); SNARRSLNFGGST
Change = G11R; value = -0.0761
Change = R4L; value = -0.395
Change = N2L; value = 0.483
Change = R5A L7A; value = -0.167
Change = G10T; value = 1.12
Change = R5W; value = 0.154
Change = S6H; value = 1.68
Change = R4F; value = -0.143
Change = F9E; value = -0.233
Change = R5D; value = 0.666
Change = N8H; value = 0.924
Change = T13I; value = 1.31
Change = T13N; value = 1.24
Change = T13M; value = 0.929
Change = F9A; value = 0.222
Change = T13Q; value = 0.922
Change = L7V; value = -0.399
Change = S12V; value = 0.5

Series 2
Target: Ras GTPase-activating protein-binding protein 1, full length (G3BP1, Homo sapiens, UniProt Q13283)
Sequence of UniProt Q13283 (whole entry, looked up): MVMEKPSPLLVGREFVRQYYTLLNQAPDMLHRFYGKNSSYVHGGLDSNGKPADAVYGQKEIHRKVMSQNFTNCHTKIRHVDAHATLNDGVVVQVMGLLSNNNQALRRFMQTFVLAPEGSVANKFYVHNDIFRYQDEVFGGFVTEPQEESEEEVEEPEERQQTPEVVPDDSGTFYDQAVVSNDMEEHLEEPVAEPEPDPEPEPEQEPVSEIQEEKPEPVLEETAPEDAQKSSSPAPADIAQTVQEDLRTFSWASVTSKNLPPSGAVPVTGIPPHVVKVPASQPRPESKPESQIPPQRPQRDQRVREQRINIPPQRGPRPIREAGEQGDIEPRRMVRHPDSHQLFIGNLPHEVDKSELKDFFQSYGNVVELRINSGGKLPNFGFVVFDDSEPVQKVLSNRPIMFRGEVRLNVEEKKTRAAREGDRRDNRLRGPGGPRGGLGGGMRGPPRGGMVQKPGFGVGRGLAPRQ
Method: RNA Bind-n-Seq
Form: RNA
Matrix: in vitro
Concentration: 200 nM
Notes: whole 134-nt RNA, ends assumed
With: 150 mM LiCl
Relative to: input library
Direction: higher = stronger binding
Measurement: log2 enrichment
Each molecule: 7-deaza-guanosine replaces G
Shared flanks, not repeated: GGGAGUUCUACAGUCCGACGAUC … UGGAAUUCUCGGGUGUCAAGG
Sequence = CACAGACAACACGCACCCACACAGACACAGAGUGAAGGGGUUGGGAUGGGGACAGGGUGCACAGCAGGGCGGGGUAGGACCCCAGCCCCU; value = 0.17
Sequence = UCAAGUCCUGUGCUACACAUCGUAUGUACCGAAUCGGGAGGGAAAGGGAAAGGGAAAGUAUUAUGUUACGCCGUUCGGAUCUGCACUUCC; value = -0.0762
Sequence = CUCAAGUCCUGUGCUACACAUCGUAUGUACCGAAUCGGGGCGGGCGGGGCGGGGAAAGUAUUAUGUUACGCCGUUCGGAUCUGCACUUCC; value = -0.178
Sequence = GGUGUUGCUGGAAGAAGCCAAGGAUUUGCUCUCUGACUGGCUGGAUUCUACACUUGGCUGUGAUGUCACUGACAAUUCCAUCUUCUCCAA; value = -0.302
Sequence = UGGCCCUGGUGGCAUGCGGGGAGGAAGAGGUGGCCUCAUGGAUCGUGGUGGUCCCGGUGGAAUGUUCAGAGGUGGCCGUGGUGGAGACCG; value = 0.0217
Sequence = GUCCUGUGCUACACAUCGUAUGUACCGAAUCGGGGAAAAAGGGGUUUGGGGAAAGGGGAAAGUAUUAUGUUACGCCGUUCGGAUCUGCAC; value = -1.22
Sequence = CAAGUCCUGUGCUACACAUCGUAUGUACCGAAUCGGGAAAAAGGGUGGGAAAGGGAAAGUAUUAUGUUACGCCGUUCGGAUCUGCACUUC; value = -0.292
Sequence = UGGGAGGUGGAUUUUGUUUAUGUUUUUAGCUCAUUUCCAGGGGUGGGAAUUUUUUUUUAAUAUGUGUCAUGAAUAAAGUUGUUUUUGAAA; value = -0.134

Series 3
Target: RNA binding protein fox-1 homolog 2, RRM domain, GST-SBP tag (RBFOX2, Homo sapiens, UniProt O43251-10, residues 100-194)
Method: RNA Bind-n-Seq
Form: RNA
Matrix: in vitro
Concentration: 365 nM
Notes: natural RNA segment, single round, ends assumed
Relative to: no-protein control
Direction: higher = stronger binding
Measurement: RBNS enrichment (R)
Shared flanks, not repeated: GGGAGUUCUACAGUCCGACGAUC … UGGAAUUCUCGGGUGCCAA
Residues (chain): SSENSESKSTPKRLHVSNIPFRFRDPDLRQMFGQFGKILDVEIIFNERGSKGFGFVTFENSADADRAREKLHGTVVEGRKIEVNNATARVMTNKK
Sequence = UGCUCCUUCUGUUCCUCAGGAACUAACGAGAACUGUCCUCCAAGGCAGGGGGCAGGGUGGGGCCUGAGAGUGGCUUCAAGUCGGCAGGGUUCUGCUGCCCCUGAUGCUCA; value = 0.228
Sequence = GGUGUUGUGUAUGACUCUGUUGCCUUUUUGUCUGGAAACUAAAGGCUGGGGGUGGCAAAAUCAAUGACUUUUCUAACUAGGGAAGCCCUGUGGCCUCCAAAUUCACUGAC; value = 0.407
Sequence = CCAGAGUCCACCUGGAAGCCUGUUCCCCUCUCCUCGGCUCCUGGUCCACCAGUGCAUGGCAGUGCCCAUGCAUGCCGGCAUAUUCAGCAGCUGUCACCUUACUCCCAUCC; value = 0.588
Sequence = CUUUUUCUUUUACUUAAUGAACAUGUGAUAUGAGUAGUGAUGUGCAAAAGCACAGACGUUCAUGUUUUCUAUCAUGUAAAAUCCUGUAGUUAAGCUGUAUAUUAGCAGUG; value = 0.287
Sequence = CCCUGUAGCUGCAAGUAGCAGGGCAGAGACCCCAGCAGGGCCUCCAGCAGCCCUCAUGGCCCCUUUCCUGUACCAAGCACCCAGCUCUCCUCUUGUUCUGAAAGGGAUUU; value = 0.298
Sequence = UCAUGAGUUAGUUAUGCAGCAAGUCCCUAUAUACCUAGAAAUGCUCUUGUCAGAAGUGUCACUGCCAAGGGACCAGAGAGAGGCUGCUAAGAGCCUGGACAUGCCUACCC; value = 0.283
Sequence = AGGGAGAACAGGUAGUAGAAAUUCAGGAUUACCAAGUGGCCACCAGUGCACACACUCCGCAGCUGUGACUCAGCCUUGUGUAGGGUCCCAAAGAAGCAAGCCUUAGAACC; value = 0.478
Sequence = AAUUCACAGUCGCCGAGUCUACCUAGCUUUCUUGGAAGCAGUCUAGCAAAAUUUCUAUUUGUACGUUCACUAAUUAUCUACAAGGACAAAAUCAGUUGUAUUUACAAAAC; value = 0.235

Series 4
Target: Interferon regulatory factor 5, full length, phosphomimetic (IRF5, Homo sapiens, UniProt Q13568-2, residues 1-514, S451D/S453D/S456D/S462D)
Method: protein-binding microarray
Form: double-stranded DNA, one strand shown
Matrix: in vitro
Concentration: 940 nM top
Notes: 60-bp whole probe
With: salmon DNA 0.4 mg/ml
Relative to: random background probes
Direction: higher = stronger binding
Measurement: fitted relative affinity
Shared flanks, not repeated: GCCTAGCAC … GTCTTGATTCGCTTGACGCTGCTG
Sequence = GACGGTTTCGTACTGCTGACGTGCTAG; value = 5.12 z-score
Sequence = TTAGGACTGGGTTTCGGTAAGTGCTAG; value = 5.55 z-score
Sequence = GACGATATCAGACGGGAGACGTGCTAG; value = -0.437 z-score
Sequence = GTTCTTTTCAGTCCCCTCTTGTGCTAG; value = 1.17 z-score
Sequence = GACGATTTTGGGTTTCGAGACGTGCTA; value = 2.82 z-score
Sequence = TTAGAGATCAGTATCGATTAGTGCTAG; value = 5.2 z-score
Sequence = TTAGGTTTCGGTACCGGTTAGTGCTAG; value = 15 z-score
Sequence = TTAGATATCGGCACTGGATTAGTGCTA; value = 0.413 z-score
Sequence = ACAAAGATTTTTATCAAATGGTGCTAG; value = 0.325 z-score
Sequence = GACGAACTGGGGACTGCAGACGTGCTA; value = -0.264 z-score
Sequence = GGCGGTTTCGACTATCGGGACGTGCTA; value = 8.28 z-score
Sequence = GACGAACCGGGGTTTCGAGACGTGCTA; value = 1.92 z-score
Sequence = GACGGTTTCGGTTCCGGGAGGTGCTAG; value = 13.2 z-score
Sequence = CTCTGTCTAAAATTGTTAAAGTGCTAG; value = 0.423 z-score
Sequence = ATAGGTATCCTTATCCTTTAGTGCTAG; value = 0.303 z-score
Sequence = GCCGATTTCGGGTATCGAGACGTGCTA; value = 2 z-score
Sequence = GACGGATTGCTACTGCTGACGTGCTAG; value = -0.548 z-score
Sequence = TTGGATTCCAGTTTCGATTAGTGCTAG; value = 8.73 z-score
Sequence = TGTTCTTTTCTGTTGTCTGTGTGCTAG; value = 1.81 z-score

A few entries again (series 3):
Sequence = CUUUUUCUUUUACUUAAUGAACAUGUGAUAUGAGUAGUGAUGUGCAAAAGCACAGACGUUCAUGUUUUCUAUCAUGUAAAAUCCUGUAGUUAAGCUGUAUAUUAGCAGUG; value = 0.287
Sequence = CCCUGUAGCUGCAAGUAGCAGGGCAGAGACCCCAGCAGGGCCUCCAGCAGCCCUCAUGGCCCCUUUCCUGUACCAAGCACCCAGCUCUCCUCUUGUUCUGAAAGGGAUUU; value = 0.298
Sequence = UCAUGAGUUAGUUAUGCAGCAAGUCCCUAUAUACCUAGAAAUGCUCUUGUCAGAAGUGUCACUGCCAAGGGACCAGAGAGAGGCUGCUAAGAGCCUGGACAUGCCUACCC; value = 0.283
Sequence = AGGGAGAACAGGUAGUAGAAAUUCAGGAUUACCAAGUGGCCACCAGUGCACACACUCCGCAGCUGUGACUCAGCCUUGUGUAGGGUCCCAAAGAAGCAAGCCUUAGAACC; value = 0.478
